Measured values gathered from unrelated publications.
Each line is one published result; not all experiments were run side by side. Numbers after ± are the reported error.

| Structure (SMILES) | test | test system | conditions | measurement | value |
| --- | --- | --- | --- | --- | --- |
| CC1=C(C=O)C(C)(C)CC=C1 | – | simulated gastric fluid | 500 µM, 2 h, pH 1.2, 37 °C | degradation | 54% |
| CCCC[C@H](NC(=O)[C@H](CC(=O)O)NC(=O)[C@H](CC(=O)O)NC(=O)[C@H](CCC(=O)O)NC(=O)[C@H](Cc1ccc(O)cc1)NC(=O)[C@H](CC(=O)O)NC(=O)[C@H](CC(=O)O)NC(=O)[C@H](CCC(=O)O)NC(=O)[C@H](CC(C)C)NC(=O)[C@H](CCC(=O)O)NC(=O)[C@H](CCC(=O)O)NC(=O)c1ccc2c(c1)C1(OC2=O)c2ccc(O)cc2Oc2cc(O)ccc21)C(=O)N[C@@H](CCC(=O)O)C(=O)N[C@@H](CCC(=O)O)C(N)=O | – | A-431 cell lysate | 3 h, formation of 8-residue fragment | degradation rate | 100 ± 8.2 fmol/min/mg |
| O=C(O[C@@H]1Cc2c(O)cc(O)cc2O[C@@H]1c1cc(O)c(O)c(O)c1)c1cc(O)c(O)c(O)c1 | UV-Vis | PBS | 0.02 mg/mL, 24 h, pH 7.4 | degradation | 50.7 ± 2.27% |
| C#CCN(CCCNC(=O)CCCCC[N+]1=C(/C=C/C2=C(Cl)C(=C/C=C3\N(CCCCCC(=O)[O-])c4ccccc4C3(C)C)/CCC2)C(C)(C)c2ccccc21)CCCOc1ccc(Cl)cc1Cl | – | mouse plasma | low concentration | degradation half-life | 11 h |
| NC(=O)C[C@H](N)C(=O)N[C@@H](Cc1ccccc1)C(=O)N[C@@H](Cc1ccccc1)C(=O)O | HPLC | solution | 1 mg/mL, 60 days, 25 °C | degradation | 15.4% |
| CCCC(CCC)C(=O)[O][Pt]([NH2])([NH2])([Cl])([Cl])[O]C(=O)c1ccccc1OC(C)=O | HPLC | phosphate buffer | 1 day, pH 7, 37 °C | degradation | ~20% |
| CCOC(=O)CCC(=O)Oc1ccc(/C=C/C(=O)/C=C(O)/C=C/c2ccc(OC(=O)CCC(=O)OCC)c(OC)c2)cc1OC | – | rat plasma | 1.5 µM, 37 °C | degradation rate constant | 7.61 ± 0.5 min⁻¹ |
| C[C@@H](O)[C@H](NC(=O)OP(=O)(O)OC[C@H]1O[C@@H](n2cnc3c(N)ncnc32)[C@H](O)[C@@H]1O)C(=O)O | – | potassium phosphate buffer | time not given, pH 6, -80 °C | degradation per freeze-thaw | ~10% |
| COC(=O)C1CN1S(=O)(=O)c1ccc2c(N(C)C)cccc2c1 (stereo not shown) | ring opening | aqueous Tris-HCl buffer | 3.5 h, pH 7.4, without DTT | degradation | 16% |
| COc1c2c(cc3oc(C)cc(=O)c13)OC(C(C)(C)O)C2 (stereo not shown) | – | rat plasma | 15 min, 37 °C | degradation | ≤ 36% |
| CC(C)C[C@H](NC(=O)[C@@H](NC(=O)[C@H](CCCCN)NC(=O)[C@@H](Cc1c[nH]c2ccccc12)NC(=O)[C@H](Cc1ccccc1)NC(=O)[C@H](CSCC(N)=O)NC(=O)CNC(=O)[C@@H](N)Cc1ccccc1)[C@@H](C)O)C(=O)O | HPLC | human serum | – | degradation time | ≤ 2 h |
| CC(=O)Oc1ccccc1C(=O)[O][Pt]([NH2])([NH2])([Cl])([Cl])[O]C(=O)CCCc1ccccc1 | HPLC | phosphate buffer | 1 day, pH 7, 37 °C | degradation | ~10% |
| C[C@H](NC(=O)[C@H](Cc1cnc[nH]1)NC(=O)[C@H](CO)NC(=O)[C@@H](N)CC(=O)O)C(=O)N[C@@H](CCCCN)C(=O)N[C@@H](CCCNC(=N)N)C(=O)N[C@@H](Cc1cnc[nH]1)C(=O)N[C@@H](Cc1cnc[nH]1)C(=O)NCC(=O)N[C@@H](Cc1ccc(O)cc1)C(=O)N[C@@H](CCCCN)C(=O)N[C@@H](CCCNC(=N)N)C(=O)N[C@@H](CCCCN)C(=O)N[C@@H](Cc1ccccc1)C(=O)N[C@@H](Cc1cnc[nH]1)C(=O)N[C@@H](CCC(=O)O)C(=O)N[C@@H](CCCCN)C(=O)N[C@@H](Cc1cnc[nH]1)C(=O)N[C@@H](Cc1cnc[nH]1)C(=O)N[C@@H](CO)C(=O)N[C@@H](Cc1cnc[nH]1)C(=O)N[C@@H](CCCNC(=N)N)C(=O)NCC(=O)N[C@@H](Cc1ccc(O)cc1)C(=O)O | PAGE band density | whole saliva supernatant G1, diluted 1:10 | 100 µg/mL, 6 h, 37 °C | degradation | 58.2% |

Excerpt of the above:
| Structure (SMILES) | test | test system | conditions | measurement | value |
| --- | --- | --- | --- | --- | --- |
| COc1c2c(cc3oc(C)cc(=O)c13)OC(C(C)(C)O)C2 (stereo not shown) | – | rat plasma | 15 min, 37 °C | degradation | ≤ 36% |
